Measurements from different studies.
Each line is one published result; not all experiments were run side by side. Where no end group is shown, it is not given here. [ ]: non-standard residue; d: D form.

CCN1C(=O)/C(=C\c2ccc(OC)cc2)S/C1=N/N=C(\C)c1ccccn1 — inhibition (HEp-2; cell growth or viability, SRB; 100 µg/mL, 48 h): 74.7%
V[dA]IA (D-Ala2) — cell viability (PC-12; protection from Aβ1–42 toxicity, MTT; concentration not given, 6 h, Aβ to peptide ratio 1:1, added: Aβ1–42 2 µM; baseline: untreated cells): 70%
COc1ccc(-c2nc3ccccc3s2)cc1OCc1nnc(Cc2ccccc2)o1 — minimal effective dose (hind limb tonic extension; albino mouse, MES-induced seizure; ip, 4.0 h): 300 mg/kg
C[C@H]1C[C@H]2CSC(N)=N[C@@]2(c2nc(NC(=O)c3ccc(OC(F)F)cn3)cs2)CO1 — change from baseline (refers to: CSF sAPPβ; healthy adults; 125 mg once daily, 14 days, day 15; baseline: placebo-adjusted baseline): -80.2%
COc1ccc(-c2nc3ccccc3s2)cc1OCc1nnc(-c2cc([N+](=O)[O-])cc([N+](=O)[O-])c2O)o1 — minimal effective dose (seizure protection; albino mouse, scPTZ-induced seizure; ip, 0.5 h): 30 mg/kg
insulin aspart — AUC glucose infusion rate (euglycaemic clamp; type 1 diabetes patients; subcutaneous, 0.2 U/kg single, 0-60 min, antibody quartile 4, 15.84-66.94 %B/T): 123 mg/kg
VV[Aib]A (Aib3; Aib = CC(C)(N)C(=O)O) — cell viability (PC-12; protection from Aβ1–42 toxicity, MTT; concentration not given, 6 h, Aβ to peptide ratio 1:10, added: Aβ1–42 2 µM; baseline: untreated cells): 73.3%
COc1ccc(-c2nc3ccccc3s2)cc1OCc1nnc(C(c2ccccc2)c2ccccc2)o1 — minimal effective dose (hind limb tonic extension; albino mouse, MES-induced seizure; ip, 0.5 h): 100 mg/kg
VV[dA]A (D-Ala3) — cell viability (PC-12; protection from Aβ1–42 toxicity, MTT; concentration not given, 6 h, Aβ to peptide ratio 1:1, added: Aβ1–42 2 µM; baseline: untreated cells): 70%
Ac-DNCQYVYNV-NH2 (N-acetyl, C-amide) — inhibition (mouse cathepsin G; enzyme activity; peptide, neutrophil lysate; 1.25 or 2.5 mM, pH 8.0, 37 °C): inhibited

Repeated from above:
VV[Aib]A (Aib3; Aib = CC(C)(N)C(=O)O) — cell viability (PC-12; protection from Aβ1–42 toxicity, MTT; concentration not given, 6 h, Aβ to peptide ratio 1:10, added: Aβ1–42 2 µM; baseline: untreated cells): 73.3%
